# Results pooled from the literature.
# Protocols differ between the studies behind these lines. ± gives the spread as reported.
Structure (SMILES),assay,system,conditions,how to read,endpoint,value
CSCC[C@H](NC(=O)CNC(=O)[C@H](CCCCN)NC(=O)[C@H](CC(C)C)NC(=O)[C@@H]1CCCN1C(=O)[C@H](CO)NC(=O)[C@H](Cc1c[nH]cn1)NC(=O)[C@H](Cc1c[nH]c2ccccc12)NC(=O)[C@H](CCCNC(=N)N)NC(=O)[C@H](CC(C)C)NC(=O)[C@H](CCCNC(=N)N)NC(=O)[C@H](Cc1c[nH]c2ccccc12)NC(=O)[C@H](CS)NC(=O)CCCCCNC(=O)CN1CCN(CC(=O)O)CCN(CC(=O)O)CCN(CC(=O)O)CC1)C(=O)O [copper-64 labelled],,"BALB/c nude mice, Huh-7 xenograft, tumour","intravenous, 1.85 MBq, 18 h",,tumour uptake,6.19 %ID/g
C=Cc1c(C)c2cc3nc(c(CC(=O)O)c4[nH]c(cc5nc(cc1[nH]2)C(C)=C5CC)c(C)c4C(=O)O)[C@@H](CCC(=O)NCCCC[C@H](NC(C)=O)C(=O)N[C@@H](Cc1ccccc1)C(=O)N[C@@H](Cc1ccccc1)C(=O)N[C@H](C(=O)N[C@@H](CC(C)C)C(=O)N[C@@H](CCCCN)C(=O)N[C@@H](CO)C(=O)NCC(=O)N[C@@H](CCC(N)=O)C(=O)NCC(=O)N[C@@H](Cc1ccc(O)cc1)C(=O)N[C@@H](CCCNC(=N)N)C(=O)N[C@@H](Cc1c[nH]c2ccccc12)C(=O)N[C@@H](CC(=O)O)C(=O)N[C@@H](CO)C(=O)N[C@@H](Cc1ccc(O)cc1)C(=O)N[C@@H](CCCNC(=N)N)C(=O)N[C@@H](Cc1c[nH]c2ccccc12)C(=O)N[C@@H](Cc1c[nH]cn1)C(=O)N1CCC[C@H]1C(=O)N[C@@H](CO)C(=O)N[C@@H](CS)C(=O)N[C@@H](C)C(=O)N[C@@H](CS)C(=O)NCC(=O)NCC(=O)N[C@@H](CO)C(=O)N[C@@H](CCCCN)C(N)=O)C(C)C)[C@@H]3C,ex vivo fluorescence imaging,4T1 tumour-bearing mice,"intravenous, 13 mg/kg",,tumour fluorescence duration,48 h
COc1ccc(C)cc1NC(=O)OC1CC2CCCC(C1)N2Cc1ccc(CC[18F])cc1 (centres unmarked),,"BALB/c mice, EMT6 tumour",30 min,reference: tumour over fat,tumour to tissue ratio,0.45
CC(C)C[C@@H](NC(=O)[C@@H](CCCNC(=N)N)NC(=O)[C@@H](Cc1c[nH]cn1)NC(=O)[C@@H](Cc1c[nH]c2ccccc12)NC(=O)[C@@H](Cc1c[nH]cn1)NC(=O)[C@@H](Cc1ccccc1)NC(=O)[C@H](NC(=O)[C@@H](Cc1ccc(O)cc1)NC(=O)CNC(=O)CNC(=O)CCOCCOCCOCCNC(=O)CN1CCN(CC(=O)O)CCN(CC(=O)O)CC1)[C@H](C)O)C(=O)N[C@H](CC(N)=O)C(=O)N1CCC[C@@H]1C(=O)O [gallium-68 labelled],,"male C57BL/6 mice, tumour","intravenous, 1.85 MBq, 60 min, added: GP12 blocking",reference: tumour over muscle,tumour to muscle ratio,1.09 ± 0.3
CCCC[C@H]1C(=O)N(C)[C@@H](CCCC)C(=O)N[C@@H](CCCNC(=O)CN2CCN(CC(=O)O)CCN(CC(=O)O)CCN(CC(=O)O)CC2)C(=O)N[C@H](C(=O)NCC(N)=O)CSCC(=O)N[C@@H](Cc2ccc(O)cc2)C(=O)N(C)[C@@H](C)C(=O)N[C@@H](CC(N)=O)C(=O)N2CCC[C@H]2C(=O)N[C@@H](Cc2c[nH]cn2)C(=O)N[C@@H](CC(C)C)C(=O)N(C)CC(=O)N[C@@H](Cc2c[nH]c3ccccc23)C(=O)N[C@@H](CO)C(=O)N[C@@H](Cc2c[nH]c3ccccc23)C(=O)N1C [gallium-68 labelled],static PET,"NOD/SCID mice, CHO-hPD-L1 xenograft, CHO-hPD-L1 tumour","intravenous, 1 h post injection, after five atezolizumab treatments, added: atezolizumab 10 mg/kg",,tumour uptake,3.16 ± 0.15 %ID/g
[3H]c1sc(C)nc1C=C(C)C1CC2C(CCCC(C)C(O)C(C)C(=O)C(C)(C)C(O)CC(=O)O1)N2CCO (centres unmarked),,"CD2F1 mice, M109 tumour (FR−)","intravenous, 2.2 nmol/kg, 24 h",,tumour concentration,240 ± 20 ng/g
C=Cc1c(C)c2cc3nc(c(CC(=O)O)c4[nH]c(cc5nc(cc1[nH]2)C(C)=C5CC)c(C)c4C(=O)O)[C@@H](CCC(=O)NCCCC[C@H](NC(C)=O)C(=O)N[C@@H](Cc1ccccc1)C(=O)N[C@@H](Cc1ccccc1)C(=O)N[C@H](C(=O)N[C@@H](CC(C)C)C(=O)N[C@@H](CCCCN)C(=O)N[C@@H](CO)C(=O)NCC(=O)N[C@@H](CCC(N)=O)C(=O)N[C@@H](Cc1ccc(O)cc1)C(=O)N[C@@H](C)C(=O)N[C@@H](CO)C(=O)N[C@@H](Cc1ccc(O)cc1)C(=O)N[C@@H](Cc1c[nH]cn1)C(=O)N[C@@H](CS)C(=O)N[C@@H](Cc1c[nH]c2ccccc12)C(=O)N[C@@H](CS)C(=O)N[C@@H](Cc1c[nH]c2ccccc12)C(=O)N[C@@H](CCCNC(=N)N)C(=O)N[C@@H](CC(=O)O)C(=O)N1CCC[C@H]1C(=O)NCC(=O)N[C@@H](CCCNC(=N)N)C(=O)N[C@@H](CO)C(=O)NCC(=O)NCC(=O)N[C@@H](CO)C(=O)N[C@@H](CCCCN)C(N)=O)C(C)C)[C@@H]3C,fluorescence imaging,"mice bearing 4T1 tumours, tumour",dose not given,,tumour retention time,> 7 days
COc1cc2ncnc(Oc3cccc(N[11C](=O)Nc4cc(C(C)(C)C(F)(F)F)on4)c3)c2cc1OC,dynamic PET,"female Balb/c nude mice, A375 xenograft, tumour","intravenous, 0 min",,tumour uptake,0.19 ± 0.03 %ID/g

# A few entries again:
Structure (SMILES),assay,system,conditions,how to read,endpoint,value
COc1ccc(C)cc1NC(=O)OC1CC2CCCC(C1)N2Cc1ccc(CC[18F])cc1 (centres unmarked),,"BALB/c mice, EMT6 tumour",30 min,reference: tumour over fat,tumour to tissue ratio,0.45
